Results collected from several papers.
Numbered parts are unrelated; each lists some results of a single study. Substitutions count along the parent as printed.

Block 1 — target: CCNF, cyclin fold, Cln2 fusion (human); technique: yeast growth competition, sequencing; matrix: yeast; setting: strong parent motif; reference: not given; direction: higher = stronger binding; starting sequence: viral docking peptide; YKVKRRLVFGADD
| Substitution | normalised enrichment score |
| --- | --- |
| YKVKGRLVFGADD [R5G] | 1.77 |
| YKVKRVLVFGADD [R6V] | 8.74 |
| YKVKRRLVRGADD [F9R] | 0.3 |
| YKVKRRLVAGADD [F9A] | 0.706 |
| YKVKRRLVLGADD [F9L] | 8.42 |
| YKVNRRLVFGADD [K4N] | 8.38 |
| YKVKRRSVFGADD [L7S] | 0.792 |
| YKVKRRFVFGADD [L7F] | 1.01 |

Block 2 — concentration: 10 µM
Compound: Cc1cc2c(-c3ccco3)cnc(N[C@@H]3CCN(C)C[C@H]3C(=O)NC3CCCCC3)c2[nH]c1=O
| target | effect on | inhibition |
| --- | --- | --- |
| HTR1A (Homo sapiens, UniProt P08908) | ligand displacement | 17.3% |
| SLC6A4 (Homo sapiens, UniProt P31645) | cell-free assay | 17.7% |
| DRD5 (Homo sapiens, UniProt P21918) | ligand displacement | 33.2% |

Block 3 — effect on: peptide-MHC binding; form: peptide; concentration: concentration not given
Target: HLA class I histocompatibility antigen, C alpha chain, allele C*04:01 (Homo sapiens, UniProt P10321)
| Molecule | binding |
| --- | --- |
| STMRRMALR | inactive |
| FRYEFTAPF | inactive |
| MQFPGSVGF | inactive |
| MAWERGPAL | inactive |
| YFDPANGKF | active |
| FRDRGQHVL | inactive |
| YLQQNTHTL | inactive |
| TSASFTDLY | inactive |

Mixed results
| SMILES | target | effect on | action | concentration | reference | measurement | result |
| --- | --- | --- | --- | --- | --- | --- | --- |
| O=C1NC(=O)c2c1c1c3ccccc3n3c1c1c2c2ccccc2n1[C@H]1CC[C@@H]3O1 | Receptor-type tyrosine-protein kinase FLT3 (FLT3, Homo sapiens, UniProt P36888) | enzyme activity | inhibitor | 0.5 µM | control | remaining activity | 0.194% |
